# Measured values pooled from the literature.
# Each line is one published result; not all experiments were run side by side. Values joined by “and” are separate records of one study, mostly repeats; a detail may differ. Numbers after ± are the reported error.
Structure (SMILES),target or system,test,system,conditions,quantity,result
Cc1ccc(OCCN(C)C)cc1C(=O)N[C@H](C)c1cc(-c2scnc2C)nc2ccccc12,Vero E6,,,7.812 µM,viability,105% and 96.2%
O=C1NC2(CC2)COc2ncc(F)cc2[C@H]2COCCN2c2ccn3ncc1c3n2,,,"Sprague-Dawley rat, female, serum","oral, 5 mg/kg/day, 4 weeks daily, end of treatment",total cholesterol,2.08 ± 0.37 mmol/L
CCn1ccc(-c2cc([C@@H](C)NC(=O)c3cc(OC[C@H]4CCCN4C)ccc3C)c3ccccc3n2)n1,Vero E6,,,500 µM,viability,2.34% and 0.469% and 0.781%
CC[C@H](C)[C@H](NC(=O)[C@H](CCCCN)NC(=O)CNC(=O)[C@H](CC(C)C)NC(=O)[C@H](Cc1ccccc1)NC(=O)[C@H](CCCCN)NC(=O)[C@H](CO)NC(=O)[C@H](Cc1ccccc1)NC(=O)[C@H](Cc1c[nH]c2ccccc12)NC(=O)[C@H](CCC(N)=O)NC(=O)[C@@H](NC(=O)[C@H](Cc1ccccc1)NC(=O)CCCCCNC(=O)CN1CCN(CC(=O)O)CCN(CC(=O)O)CCN(CC(=O)O)CC1)C(C)C)C(=O)N[C@@H](CCC(=O)O)C(=O)N1CCC[C@H]1C(=O)N[C@@H](CC(=O)O)C(=O)N[C@H](C(=O)N[C@@H](CO)C(=O)N[C@@H](CCC(N)=O)C(=O)N[C@H](C(=O)N[C@@H](CCC(N)=O)C(=O)N[C@@H](CC(=O)O)C(=O)N1CCC[C@H]1C(=O)N[C@@H](CC(N)=O)C(=O)N[C@@H](CC(=O)O)C(=O)N[C@@H](CCC(N)=O)C(=O)N[C@@H](Cc1ccc(O)cc1)C(=O)N[C@@H](CCC(=O)O)C(=O)N1CCC[C@H]1C(=O)N[C@@H](Cc1ccccc1)C(=O)O)C(C)C)C(C)C [copper-64 labelled],,dynamic PET,"mouse, CT26 tumour, untreated, tumour","intravenous, 100 µCi/mouse, 1170 s",SUVmean,1.17 SUV
COc1ccc2c3c1O[C@H]1[C@H](O)C=C[C@@]4(O)[C@@H](C2)N(C)CC[C@]314,,,octanol/buffer,"1 h, pH 7.4",logD,-0.61
COc1cc2c(cc1NC(=O)c1cncn1C)C[C@H]1[C@H]3CCCC[C@@]23CCN1C,,,"C57BL/6 mice, plasma","oral, 50 µg/g, 15 min",plasma concentration,14500 ng/mL and 11700 ng/mL and 10100 ng/mL and 11200 ng/mL and 6560 ng/mL
CC[C@H](C)[C@H](NC(=O)[C@H](CCCCN)NC(=O)[C@H](CCCCN)NC(=O)[C@H](Cc1ccccc1)NC(=O)[C@H](Cc1ccccc1)NC(=O)[C@H](CCCCN)NC(=O)[C@H](CCCCN)NC(=O)[C@H](Cc1ccccc1)NC(=O)[C@H](CCCNC(=N)N)NC(=O)[C@@H](N)CCCCN)C(=O)N[C@@H](CCCCN)C(=O)N[C@@H](CCCCN)C(=O)N[C@@H](CO)C(=O)N[C@H](C(=O)N[C@@H](CCCCN)C(=O)N[C@@H](CCCCN)C(=O)N[C@@H](CCCNC(=N)N)C(=O)N[C@H](C(=O)N[C@@H](CCCCN)C(=O)N[C@@H](CCCCN)C(=O)N[C@@H](CC(C)C)C(=O)N[C@@H](Cc1ccccc1)C(=O)N[C@@H](CCCCN)C(=O)N[C@@H](CCCCN)C(=O)N1CCC[C@H]1C(=O)N[C@@H](CCCNC(=N)N)C(=O)N[C@H](C(=O)N[C@H](C(=O)N1CCC[C@H]1C(=O)N[C@H](C(=O)N[C@@H](CO)C(=O)N[C@H](C(=O)N1CCC[C@H]1C(=O)N[C@@H](Cc1ccccc1)C(=O)O)[C@@H](C)CC)[C@@H](C)CC)[C@@H](C)CC)C(C)C)C(C)C)C(C)C,Escherichia coli,,E24,after heating at 90 °C,MIC,4 µg/mL
Cc1nc2cccc(OCC(C)(C)C(=O)NC(C)C)c2c(N)c1C(=O)[O-].[Na+],Salmonella typhimurium,,TA100,"2.0 mg per plate, with S9, preincubation",revertant colonies per plate,136 ± 8
CCn1ccc(-c2cc([C@@H](C)NC(=O)c3cc(OC[C@@H]4CCN4C)ccc3C)c3ccccc3n2)n1,African green monkey cells,,,62.5 µM,viability,22.8%
CC(=O)NCCCC[C@@H]1NC(=O)[C@H](Cc2c[nH]c3c(C)cccc23)NC(=O)[C@H]([C@@H](C)O)NC(=O)[C@H](CC(N)=O)NC(=O)[C@@H](NC(C)=O)C(C)(C)SSC(C)(C)[C@@H](C(=O)N[C@@H](Cc2ccc(OCCN)cc2)C(=O)N[C@@H](Cc2ccc3ccccc3c2)C(=O)NC2(C(=O)N[C@@H](CCC(=O)O)C(=O)N[C@@H](CC(N)=O)C(=O)N[C@@H](Cc3cccnc3)C(=O)N(C)CC(N)=O)CCOCC2)NC1=O,"Albumin (ALB, Homo sapiens, UniProt P02768)",equilibrium dialysis,purified human albumin,0.1 µM,unbound fraction,74.3 ± 4.3 % unbound
Cc1ccc(OC2CN(C)C2)cc1C(=O)N[C@H](C)c1cc(-c2cnn(C)c2)nc2ccccc12,Vero E6,,,7.812 µM,viability,100% and 93.2%
O=C(C=Cc1ccc(O)c(O)c1)OC1CC(O)(C(=O)O)CC(OC(=O)C=Cc2ccc(O)c(O)c2)C1O (stereo not drawn),Vero E6,,,100 µM,cytotoxicity,0%

# Some of these lines once more:
Structure (SMILES),target or system,test,system,conditions,quantity,result
Cc1ccc(OC2CN(C)C2)cc1C(=O)N[C@H](C)c1cc(-c2cnn(C)c2)nc2ccccc12,Vero E6,,,7.812 µM,viability,100% and 93.2%
